Assay results pooled from the literature.
Each numbered part is a random draw from the data of one study; scales do not carry over between parts.

Sample 1
Target: Sal-like protein 4, full length isoform A (SALL4, Homo sapiens, UniProt Q9UJQ4, residues 1-1053)
UniProt Q9UJQ4, sequence (whole entry, looked up): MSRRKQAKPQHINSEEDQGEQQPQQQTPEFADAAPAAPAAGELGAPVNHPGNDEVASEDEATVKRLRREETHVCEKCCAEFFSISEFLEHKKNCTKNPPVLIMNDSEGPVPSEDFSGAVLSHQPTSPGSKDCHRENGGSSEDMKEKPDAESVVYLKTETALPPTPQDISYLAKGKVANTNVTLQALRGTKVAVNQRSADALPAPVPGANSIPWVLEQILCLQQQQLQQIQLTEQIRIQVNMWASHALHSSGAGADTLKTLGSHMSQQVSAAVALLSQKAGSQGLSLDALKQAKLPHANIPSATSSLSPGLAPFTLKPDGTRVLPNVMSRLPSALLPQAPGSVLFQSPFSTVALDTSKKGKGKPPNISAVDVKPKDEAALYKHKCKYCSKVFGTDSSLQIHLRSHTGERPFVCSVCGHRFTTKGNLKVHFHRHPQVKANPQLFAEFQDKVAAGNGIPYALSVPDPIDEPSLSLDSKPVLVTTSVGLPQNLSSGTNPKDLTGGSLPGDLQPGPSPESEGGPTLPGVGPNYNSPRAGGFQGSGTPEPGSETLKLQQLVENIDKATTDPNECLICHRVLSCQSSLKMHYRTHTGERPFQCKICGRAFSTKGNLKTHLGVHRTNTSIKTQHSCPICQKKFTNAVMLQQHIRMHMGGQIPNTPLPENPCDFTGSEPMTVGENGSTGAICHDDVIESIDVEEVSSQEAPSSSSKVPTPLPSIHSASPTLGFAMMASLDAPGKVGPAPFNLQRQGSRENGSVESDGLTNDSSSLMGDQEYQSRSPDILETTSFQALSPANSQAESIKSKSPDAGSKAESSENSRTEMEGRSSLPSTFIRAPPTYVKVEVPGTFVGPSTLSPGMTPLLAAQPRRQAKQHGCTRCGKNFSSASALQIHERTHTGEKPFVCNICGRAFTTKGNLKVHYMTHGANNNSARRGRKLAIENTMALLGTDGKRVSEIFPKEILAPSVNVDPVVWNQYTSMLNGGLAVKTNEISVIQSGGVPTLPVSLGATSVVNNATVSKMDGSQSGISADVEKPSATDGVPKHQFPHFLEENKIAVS
Method: universal PBM
Molecule type: double-stranded DNA, one strand shown
Matrix: in vitro
Concentration: 600 nM
Setting: 8-mer, flanks averaged, mean of replicates
Reading: higher = stronger binding
Quantity: E-score
TCCTATAA: 0.26
ATCTAGAG: 0.0312
CCTTGACC: -0.268
CGGCAATC: -0.283
AACAATAG: 0.219
TGGAGCCA: -0.147
CAATTCCA: 0.0619
ACCTTGAG: 0.0712
CGAGCACA: -0.0221
ATTTCAAG: 0.243
AGGAATCC: -0.117
CGGCAGTC: -0.151
CGACGTGA: -0.0366
ATGAACTC: -0.0135
CATCGTGC: -0.147
GTATTGGA: 0.0535

Sample 2
Target: Fragile X messenger ribonucleoprotein 1, C-terminal low-complexity region (Fmr1, Mus musculus, UniProt P35922)
Method: RNA Bind-n-Seq
Molecule type: RNA
Matrix: in vitro
Concentration: 200 nM
Setting: whole 134-nt RNA, ends assumed
Together with: 150 mM KCl
Relative to: input library
Reading: higher = stronger binding
Quantity: log2 enrichment
Shared flanks, not repeated: GGGAGUUCUACAGUCCGACGAUC … UGGAAUUCUCGGGUGUCAAGG
CCUCAAGUCCUGUGCUACACAUCGUAUGUACCGAAUCGGAGGUGGAAAAAGGAAAGUAUUAUGUUACGCCGUUCGGAUCUGCACUUCCAG: 0.0919
UCCCGGGCGCUAGCCCACCUCCCACCCGCCUCUUGGCUCCUCUCCUCUAGGCCGUCGCUUUCGGGUUCUCUCAUCGCUUCGUCGUUCGCC: 0.422
GCUGUUCUUGCCUUAGCUGCAUCUUGGACCUCAAGACAAGUAGGAGAACGGACGUUGACCGGUACGGUAAUAGACAGUGGAGAUGGUGUC: -0.894
UCCUGUGCUACACAUCGUAUGUACCGAAUCGGGGUUUUUUUGGGGUUUUUGGGGUGGGGAAAGUAUUAUGUUACGCCGUUCGGAUCUGCA: 0.746
GUCCUGUGCUACACAUCGUAUGUACCGAAUCAAAUUUAAAUUUUUUUAAAUUUUUAAAAAAGUAUUAUGUUACGCCGUUCGGAUCUGCAC: -1.28
CAAGUCCUGUGCUACACAUCGUAUGUACCGAAUCAAACCCAAACCCAAACCCAAAAAAGUAUUAUGUUACGCCGUUCGGAUCUGCACUUC: -0.221
CACAGACAUCACGCACCCACACAGACACAGAGGGAAGGGGUUGGGAUGGGGACAGGGUGCACAGCAGGGCGGGGUAGGACCCCAGCCCCU: 1.36
UUGUCCCGGAUGGGCAGCCUGCGGGCUCCCGUGGACGAGGACCGCCUGUCCCCGCUGGUGGCGGCCGACUCGCUCCUGGAGCAUGUGCGG: -0.991
UCAAGUCCUGUGCUACACAUCGUAUGUACCGAAUCGGCCGGGCCGGGGCCGGGGAAAGUAUUAUGUUACGCCGUUCGGAUCUGCACUUCC: -0.0542

Sample 3
Target: RNA binding protein fox-1 homolog 2, RRM domain, GST-SBP tag (RBFOX2, Homo sapiens, UniProt O43251-10, residues 100-194)
Method: RNA Bind-n-Seq
Molecule type: RNA
Matrix: in vitro
Concentration: 365 nM
Setting: natural RNA segment, single round, ends assumed
Relative to: no-protein control
Reading: higher = stronger binding
Quantity: RBNS enrichment (R)
Shared flanks, not repeated: GGGAGUUCUACAGUCCGACGAUC … UGGAAUUCUCGGGUGCCAA
Residues (chain): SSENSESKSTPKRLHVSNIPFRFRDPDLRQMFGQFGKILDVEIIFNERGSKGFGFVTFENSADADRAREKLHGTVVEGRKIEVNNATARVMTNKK
UAUAAGCACAAAUGUAUGUAAAGUGCCUGGCACAAAGUAGGUGCUCAAUAAAUGGUAGCUAUUAUAAACUAUUUCUUGUUUUAUUGAUUAAAAACAAGGAUCCUUCUAGA: 1.31
GCCUGCAGCAACAGAACACUUGACCUUAAAAGUCUCUUCUGGUCUUUGGAUUAGAAAAGGCUUAUGUUAGCAACCUCAGAGACUUGAGCCCUGCUAAGUGACUGACCACU: 0.567
UAGCACUGUCUCUUCCUGGCAGUGCUUUCUGCUCGCCCGACAGACAGCCUGUCGUGUCUCUUUGGACAGACGGACCAUCAGUGUAGAUAAUCAGCAUGCUUGUGCAUUAC: 1.79
CUCCCUUCUCAGGGGGCCCAUUUUAGACACACAAAGCCCAAAGAAAGGUGGUUUGCAACAGUGCUUAGCUCGAGCCUCCAUAUUUCCAUAACUGUUAGCUUAAAACUGUG: 0.335
CAAGAUGUAACUCUGGUUAUUUCAGUCAUAUCUGUGACUCUAUCAUGUACAGUUUCCUGAAUUGUCACUGUGCAUCCAAACGUAAUGAGUCUAACAGACACUGAUUUCAU: 0.329
CUUUGCAAAAUGUAUGUUACAAUAGAUAGUGUCAUGUUGCAGGUUCAACGUUAUUUACAUGUAAAUAGACAAAAGGAAACAUUUGCCAAAAGCGGCAGAUCUUUACUGAA: 0.332
CUCCCAUGUGGAGUAUCAGUCGCUCACAGGACUUGGAUCUGAAGCACAGUAAACGCAAGAGGGGAUUUGUGUACAAAAGGCAAAAAAAGUAUUUGAUAUCAUUGUACAUA: 0.431
UGGCCGCUGAGUGGCAGGGGACAGGAGUCCACUUUGUUUCGUGGGGAGGUCUAAUCUAGAUAUCGACUUGUUUUUGCACAUGUUUCCUCUAGUUCUUUGUUCAUAGCCCA: 0.434

Sample 4
Target: Histone acetyltransferase KAT6A, winged helix 1, GST fusion (KAT6A, Homo sapiens, UniProt Q92794, residues 1-85)
Method: protein binding microarray
Molecule type: double-stranded DNA, one strand shown
Matrix: in vitro
Concentration: not given
Setting: 8-mer, flanks averaged, mean of 2 arrays, mostly near background
Relative to: not given
Reading: higher = stronger binding
Quantity: E-score
Target sequence (chain): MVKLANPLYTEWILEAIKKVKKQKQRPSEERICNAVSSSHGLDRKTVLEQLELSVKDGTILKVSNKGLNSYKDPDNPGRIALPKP
CCTACTAC: 0.0753
GTGAGTAA: -0.157
GGCAGTAA: 0.0793
TTATAGAA: -0.223
ACGATACA: -0.267
ATGTGTTC: -0.12
AGAGGAGG: -0.246
AGTGAGCA: -0.124
CAAGGACG: 0.107
CAAGAACA: -0.202
CCTTCTAC: -0.17
CCGACACG: 0.0515
AACGAACC: -0.0187
CTGTATGA: -0.0105
ATACCAGA: -0.18
CGAATTAA: -0.204
GGGCTGAC: 0.0739
ATCAACAC: -0.104
GGTTTGCA: 0.0234
CTTCCGGC: 0.12
AATGCCAC: -0.166
TAAATGGA: -0.185
ATAAGACC: -0.0654
ACCAAGAT: -0.178
ACACAGAC: -0.216

For quick reference, copied from above (sample 4):
AATGCCAC: -0.166
TAAATGGA: -0.185
ATAAGACC: -0.0654
ACCAAGAT: -0.178
